Measurements of several laboratories.
Numbered parts are unrelated; each lists some results of a single study. Changes are numbered by the printed parent chain.

Sample 1 — target: CCND3, cyclin fold, Cln2 fusion (human); technique: yeast growth competition, sequencing; sample: yeast; notes: weak parent motif; relative to: not given; direction: higher = stronger binding
Starting sequence: CDC25A docking peptide (human); PPHRRRLLFACSP
| Substitution | normalised enrichment score |
| --- | --- |
| PPHRRSLLFACSP [R6S] | 0.12 |
| PPHRRRLLFACIP [S12I] | 0.14 |
| PPHRRRLLFALSP [C11L] | 0.166 |
| PPHMRRLLFACSP [R4M] | 0.0599 |
| PPHRRRSLFACSP [L7S] | 0.0789 |
| PPHFRRLLFACSP [R4F] | 0.139 |
| PPHQRRLLFACSP [R4Q] | 0.172 |
| PPHWRRLLFACSP [R4W] | 0.145 |
| PPHRRRLLFFCSP [A10F] | 0.176 |
| PPCRRRLLFACSP [H3C] | 0.159 |
| PPHRRPLLFACSP [R6P] | 0.0704 |
| PKHRRRLLFACSP [P2K] | 0.119 |
| PPHRRRLLFACHP [S12H] | 0.103 |
| MPHRRRLLFACSP [P1M] | 0.101 |
| PPHRRRLLFMCSP [A10M] | 0.15 |
| PPHRRRLLFYCSP [A10Y] | 0.0773 |
| PPHRRRLLFAGSP [C11G] | 0.0994 |
| PPHRRRLLFECSP [A10E] | 0.0869 |
| PPHRRRLIFACSP [L8I] | 0.134 |
| PPHRRALLFACSP [R6A] | 0.0716 |
| PPHRRRLLFACSG [P13G] | 0.145 |
| PPHRRRLLFAESP [C11E] | 0.076 |
| CPHRRRLLFACSP [P1C] | 0.059 |
| PPHVRRLLFACSP [R4V] | 0.21 |
| PPHRRRLLFAVSP [C11V] | 0.171 |

Sample 2 — technique: RNA Bind-n-Seq; molecule type: RNA; sample: in vitro; tested at: 365 nM; relative to: no-protein control; direction: higher = stronger binding
Target: RNA binding protein fox-1 homolog 2, RRM domain, GST-SBP tag (RBFOX2, Homo sapiens, UniProt O43251-10, residues 100-194)
Notes: natural RNA segment, single round, ends assumed
Residues (chain): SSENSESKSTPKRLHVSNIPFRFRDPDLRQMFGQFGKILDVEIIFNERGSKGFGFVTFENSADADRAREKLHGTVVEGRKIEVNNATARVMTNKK
| Sequence | RBNS enrichment (R) |
| --- | --- |
| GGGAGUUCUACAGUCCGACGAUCCAGAAUGAACUGGCUUCGGACAGAACAGGACAGAUGGAUGUCGCACACGCCGAGACUCUGCCGUACCCCUCUGUGGUUCAUAUUACUACUUCUGUUCCAUGGUGUGCAGGUGGAAUUCUCGGGUGCCAA | 0.492 |
| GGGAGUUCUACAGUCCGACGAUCCUUUGUUAAUUAAAGGCAAUUUUAUUACCUGUCUAAUUAAGAAUAUAUUUCCAAGUUAGCAGUUAUGCAGCUCAAAAGCAGUAUUUGGCUUUAUAGUAAAUUUGUUUCUAUGGAAUUCUCGGGUGCCAA | 0.344 |
| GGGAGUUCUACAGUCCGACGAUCAAUAGCCUUCAUACUGUGGAUUUUUCCUCCUACUAACUAAUAUGUGGGAAAUUAAGAUUACAGAUGCUUUGGGCCCCCUCAAACAGUACAUUGCUACAGUUCACUGUAGCUGGAAUUCUCGGGUGCCAA | 0.28 |
| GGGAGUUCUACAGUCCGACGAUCUACAGUUAUGUGAAACUGUCCACAAAAAGUCAUGGCAAUAAUGGUGUAAAGAAAAUAGUUUCUUGGGUAUUUGUAACGUACAAACUAUCAUAAAAAUUCUCCUCUUUCGCUGGAAUUCUCGGGUGCCAA | 0.408 |
| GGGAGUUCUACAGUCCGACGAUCGGGCAGGGAGGGUACAGCCAGGCUCACAGCACUGAGAGUCUCAACCAGCUAAGCUAAAUUGCAAGCUAGAUGCCUCCUGCCCCUGCCCUCAGCUGCCCAGGCCCCAGCAUUGGAAUUCUCGGGUGCCAA | 0.892 |
| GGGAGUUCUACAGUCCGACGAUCGUUUCUAUGCCACUUUGGUCCCCAACCAAAGUGAAUCUGUCCCAUGUUAGGCACUCCUCUGACCUGAAUAAGUUUCCUUUCUCCUUUAUCAGUUCAAGGUGGGAGUCUUUUGGAAUUCUCGGGUGCCAA | 0.538 |
| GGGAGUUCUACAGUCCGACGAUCUCUUGGGCCGUAUCUGCUGUGUCACAGGACAAACACUAGGUCUUAUACAGCCCCCUUUUUUCCCCCUGAAUUUUAACAUGACAUUAAUUUAACUUCUAAUUCAGUAUGAUUGGAAUUCUCGGGUGCCAA | 0.446 |
| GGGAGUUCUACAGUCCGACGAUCUUCGAGAUGAAUGUAAACUGUAUUCUUUUGAAAUGUGCAAGUGUUUGAUUCAUGCCAUUUGAUAAACUUCUGCCUUGUAGUCAUUGUUUGAUGGGACCAACUUGUAAAGUUGGAAUUCUCGGGUGCCAA | 1.5 |
| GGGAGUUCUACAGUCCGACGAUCAUAUUGAGUCUAGGCUCCAAUUACUCUCUAUCCUGUCUUUAGAGAGCUGUGAUUGAGUGUGCUAUUAUUUGGAAGGAGAAAAUGUAAAUUGAGAUAGCUGUAGUGUUUAUUGGAAUUCUCGGGUGCCAA | 1.2 |
| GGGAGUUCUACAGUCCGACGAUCGUUUCCCCUGAGCAGUCUUCCUCAGGGCUCAGUGUACCCUCGGGAGACCCUGGGAGACCAAGGCAUUCCCUGAAUAUCGUCCCCUUGCCUUCCCUACCGGCCAUUUCCUUUGGAAUUCUCGGGUGCCAA | 0.325 |
| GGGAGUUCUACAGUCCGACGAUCUUUUUACUUUUUUAAUGUAAGUCUCAGUCUUUGUAAUUAAUUAUUGAAUUGUGAGAACAUUUUUGAACAAUUUACCUGUCAAUAAAGCAGAAGACGGCAGUUUUAAAGUUUGGAAUUCUCGGGUGCCAA | 0.385 |
| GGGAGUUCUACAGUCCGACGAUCAAGCACAAAGCAACGUGCAAUACAAAAAUCGUAUCUCAAGGGAAAAUACUCAAAGAAAGAAAAGUGGCAGCACUUAUAUUAGUUUUAUAACAGGAUAAAGUCUUGUGUAUUGGAAUUCUCGGGUGCCAA | 0.294 |

Sample 3 — technique: competition protein-binding microarray; molecule type: double-stranded DNA, one strand shown; sample: in vitro; tested at: 2 µM; with: Pho4 competitor, 0.05 µM; direction: higher = stronger binding
Target: Centromere-binding protein 1, full length, His-tagged (CBF1, Saccharomyces cerevisiae, UniProt P17106, residues 1-351)
UniProt P17106, sequence (whole entry, looked up): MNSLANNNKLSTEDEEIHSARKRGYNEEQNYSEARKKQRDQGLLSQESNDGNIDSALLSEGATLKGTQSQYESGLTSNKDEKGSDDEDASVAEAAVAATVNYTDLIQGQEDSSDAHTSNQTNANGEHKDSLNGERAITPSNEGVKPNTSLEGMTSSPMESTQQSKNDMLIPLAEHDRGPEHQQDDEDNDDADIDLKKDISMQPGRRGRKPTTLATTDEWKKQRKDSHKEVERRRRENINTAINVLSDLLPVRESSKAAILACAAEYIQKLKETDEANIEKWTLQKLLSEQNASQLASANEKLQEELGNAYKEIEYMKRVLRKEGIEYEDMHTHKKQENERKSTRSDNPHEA
Notes: whole 60-bp probe, lowest competitor level
| Sequence | fluorescence intensity [a.u.] |
| --- | --- |
| AACAAGAGGTTTCGTCACAATTGCTAGGCGGTGCCAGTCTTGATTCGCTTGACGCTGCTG | 58.2 |
| GGAGCGTATTGTAACCAGATTTCCTTGGGCCAGAAGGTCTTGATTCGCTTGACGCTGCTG | 59.5 |
| CGTCCTAGCGATTGACTAGTGGGTGCCATGAGGAAGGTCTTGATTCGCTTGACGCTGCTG | 59.6 |
| ACAAATATCGCGAACCGCGTGAAGTGGCTTAGTTTTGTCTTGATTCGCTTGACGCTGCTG | 59.7 |
| CGGGGTTAAGTTTGGTTTGTGGGTGGCTTGCAGCAGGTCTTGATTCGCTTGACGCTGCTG | 80.3 |
| CTAACGAAGGTTTGAATTGTGGGTGACAAGCCAAGTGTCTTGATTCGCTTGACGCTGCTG | 75.6 |
| TCGCCTTGTACTTAGCACGTTCTGAGGCATCGCCTAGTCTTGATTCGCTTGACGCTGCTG | 106 |
| TTACTTCAAAATCACCACGTGTTGAAGAGACTTCAAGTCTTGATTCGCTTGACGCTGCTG | 1700 |
| GGGTCATTTCTCTTTACTGAATATTATGAACGAGTTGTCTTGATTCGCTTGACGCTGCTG | 86.4 |
| TTGGAGTGGAACCCTCCCGTGTGGAAAACATATTTTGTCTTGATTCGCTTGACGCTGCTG | 59.8 |
| CTTTCCCGATCTTGATGCGTGGGTGTAGCACATTTGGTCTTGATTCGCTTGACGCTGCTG | 73.3 |
| TTACATCATTGGCAACACATGCCTGGATCGCTTTAGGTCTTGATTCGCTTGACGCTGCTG | 89.1 |
| CGAAATGGCACTGACCATGCGGAGCCAGCGCCGGAAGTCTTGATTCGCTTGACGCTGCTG | 62 |
| TGGATTAGTACTGTAGGCGTGCAAACTTTGTTCGCAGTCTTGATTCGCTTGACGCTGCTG | 92.6 |
| TGCTATTGATATTACGACATGTGTGCTTCTCATGATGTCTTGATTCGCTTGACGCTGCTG | 158 |
| GTCTTGTCTCATTGTCACGCAACTTTCCCCACTTCAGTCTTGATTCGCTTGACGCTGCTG | 149 |
| TGTGTTGTATTCGGCCACGTGGGACCTCGCACATTGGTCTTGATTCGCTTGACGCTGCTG | 863 |
| GAAGTTACCATTACCTGCATGACAAACAATGGCGTTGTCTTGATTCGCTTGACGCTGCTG | 86.8 |
| CAAAAATTAGAAATCAACGTGACGGTCTAGGGCTACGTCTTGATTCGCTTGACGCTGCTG | 310 |
| ATAAGAGTACTGTTCCACGTGTTTCGATTGCCTTTAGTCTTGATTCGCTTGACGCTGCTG | 755 |
| CTTCTGTAAATTTGGGCCGTGGGTGGACGCGCCCCGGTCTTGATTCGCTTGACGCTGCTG | 92.9 |
| CTAACGAAGGTTTGTTCAGTGGGTGACAAGCCAAGTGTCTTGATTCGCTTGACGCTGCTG | 69.9 |

Sample 4 — technique: DHFR PCA, deep sequencing; sample: yeast; with: (+)-ABA 0.032 µM; relative to: wild-type fitted maximum; direction: higher = stronger binding
Target: ABI1, truncated, D143A, DHFR fusion (Arabidopsis thaliana)
Notes: methotrexate growth selection, single substitutions
Starting sequence: PYL1, truncated, DHFR fusion (Arabidopsis thaliana); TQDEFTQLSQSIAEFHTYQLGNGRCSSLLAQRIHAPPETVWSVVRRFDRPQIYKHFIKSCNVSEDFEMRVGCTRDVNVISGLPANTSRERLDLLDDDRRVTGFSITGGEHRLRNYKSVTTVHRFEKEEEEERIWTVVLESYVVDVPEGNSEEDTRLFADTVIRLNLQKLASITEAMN; partner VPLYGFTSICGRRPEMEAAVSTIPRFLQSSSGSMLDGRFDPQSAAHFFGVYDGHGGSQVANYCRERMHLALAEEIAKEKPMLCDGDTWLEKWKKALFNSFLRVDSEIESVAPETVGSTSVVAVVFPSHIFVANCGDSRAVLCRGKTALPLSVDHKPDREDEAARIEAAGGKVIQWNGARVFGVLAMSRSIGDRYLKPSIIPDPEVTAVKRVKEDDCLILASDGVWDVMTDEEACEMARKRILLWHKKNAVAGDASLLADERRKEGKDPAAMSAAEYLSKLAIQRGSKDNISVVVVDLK
| Substitution | relative binding score |
| --- | --- |
| S171C | 12.1% |
| L164C | 14.1% |
| V143R | -0.643% |
| F5D | -3.09% |
| E4C | 9.68% |
| L138V | -2.72% |
| K126C | 53.8% |
| D48V | -2.17% |
| Y53T | -4.1% |
| R74H | 6.38% |
| N165I | 3.7% |
| G107P | -0.527% |
| T106I | 77.1% |
| R123M | 5.46% |
| Q51H | 10.6% |
| R24S | 5.97% |

Repeated from above (sample 3):
| Sequence | fluorescence intensity [a.u.] |
| --- | --- |
| TTACATCATTGGCAACACATGCCTGGATCGCTTTAGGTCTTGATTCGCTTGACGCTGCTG | 89.1 |
| CGAAATGGCACTGACCATGCGGAGCCAGCGCCGGAAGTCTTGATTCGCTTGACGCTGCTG | 62 |
| TGGATTAGTACTGTAGGCGTGCAAACTTTGTTCGCAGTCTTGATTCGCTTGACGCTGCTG | 92.6 |
| TGCTATTGATATTACGACATGTGTGCTTCTCATGATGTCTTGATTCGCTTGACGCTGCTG | 158 |
| GTCTTGTCTCATTGTCACGCAACTTTCCCCACTTCAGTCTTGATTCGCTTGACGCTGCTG | 149 |
| TGTGTTGTATTCGGCCACGTGGGACCTCGCACATTGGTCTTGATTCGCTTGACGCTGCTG | 863 |
| GAAGTTACCATTACCTGCATGACAAACAATGGCGTTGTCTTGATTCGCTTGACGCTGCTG | 86.8 |
| CAAAAATTAGAAATCAACGTGACGGTCTAGGGCTACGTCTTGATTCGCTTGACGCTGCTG | 310 |
| ATAAGAGTACTGTTCCACGTGTTTCGATTGCCTTTAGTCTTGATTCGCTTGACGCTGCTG | 755 |
